Assay results collected from several papers.
Lines come from different studies, so protocols differ. Numbers after ± are the reported error.

Under “resistance mutation frequency”, CS(=O)(=O)Nc1ncn(-c2cc(F)c(COc3ccc(OS(=O)(=O)F)cc3)c(F)c2)n1 is recorded as 1.76e-09 mutants per cell (Mycobacterium tuberculosis; 10 x MIC).
NNC(=O)c1ccncc1 gave an MIC of 0.06 µg/mL (Mycobacterium tuberculosis; H37Rv rpoB S450L mutant).
NNC(=O)c1ccncc1 gave an MIC of 0.4 µM (Mycobacterium tuberculosis; H37Rv).
The MIC of Cc1cn(C2CCN(Cc3ccnc(Oc4cccc(Cl)c4)c3)CC2)c(=O)[nH]c1=O is reported as 31.2 µg/mL (Mycobacterium tuberculosis; H37Rv Rv1258c (tap) knockout).
O=[N+]([O-])c1cn2c(n1)OC[C@@H](OCc1ccc(OC(F)(F)F)cc1)C2 has an MIC of 0.06 µg/mL (Mycobacterium tuberculosis; H37Rv gyrA D94K mutant).
Cc1cn(C2CCN(Cc3cccc(Oc4ccccc4)n3)CC2)c(=O)[nH]c1=O gave an MIC of greater than 250 µg/mL (Mycobacterium tuberculosis; H37Rv Rv3065 (mmr) knockout).
CO[C@H]1/C=C/O[C@@]2(C)Oc3c(C)c(O)c4c(O)c(c(/C=N/N5CCN(C)CC5)c(O)c4c3C2=O)NC(=O)/C(C)=C\C=C\[C@H](C)[C@H](O)[C@@H](C)[C@@H](O)[C@@H](C)[C@H](OC(C)=O)[C@@H]1C has an MIC of greater than 1 µg/mL (Mycobacterium tuberculosis; H37Rv rpoB S450L mutant).
CCC(CC)[C@H](NC(C)=O)[C@@H]1[C@H](O)[C@@H](C(=O)O)C[C@H]1N=C(N)N has an IC50 of 0.4 ± 0.04 nM (neuraminidase (Influenza B virus, UniProt A0A1S5RAG6)).
With COC(=O)C=C1SC(=NN=Cc2ccc(OC(=O)CN3C(=O)CSC3=O)cc2)NC1=O the MIC was 31.6 to 45.7 µM (Mycobacterium tuberculosis; Alamar blue; MDR 210).
The MIC of Cc1cn(C2CCN(Cc3cccc(Oc4cc(Cl)cc(Cl)c4)c3)CC2)c(=O)[nH]c1=O is reported as 15.6 µg/mL (Mycobacterium tuberculosis; H37Rv Rv1258c (tap) knockout).
CO[C@H]1/C=C/O[C@@]2(C)Oc3c(C)c(O)c4c(O)c(c(/C=N/N5CCN(C)CC5)c(O)c4c3C2=O)NC(=O)/C(C)=C\C=C\[C@H](C)[C@H](O)[C@@H](C)[C@@H](O)[C@@H](C)[C@H](OC(C)=O)[C@@H]1C has an MIC of 2.43 µM (Mycobacterium tuberculosis; Alamar blue; MDR 210).
The MIC of Oc1cc(Cl)ccc1Oc1ccc(Cl)cc1Cl is reported as 20 µg/mL (Mycobacterium tuberculosis; mc2 4914 (H37Rv-derived)).
With NNC(=O)c1ccncc1 the MIC was 7.29 µM (Mycobacterium tuberculosis; Alamar blue; MDR 210).
Under “resistance mutation frequency”, NNC(=O)c1ccncc1 is recorded as 3.97e-06 mutants per cell (Mycobacterium tuberculosis; 4 x MIC).
NC(=S)NN=Cc1ccc(OC(=O)CN2C(=O)CSC2=O)c(Cl)c1 gave an MIC of 41.4 µM (Mycobacterium tuberculosis; Alamar blue; MDR 210).
For [Ca+2], the inhibition was 51.2% (Halyomorpha halys; inward current, inhibitor, electrophysiology; concentration not given).

Excerpt of the above:
Under “resistance mutation frequency”, CS(=O)(=O)Nc1ncn(-c2cc(F)c(COc3ccc(OS(=O)(=O)F)cc3)c(F)c2)n1 is recorded as 1.76e-09 mutants per cell (Mycobacterium tuberculosis; 10 x MIC).
Cc1cn(C2CCN(Cc3cccc(Oc4ccccc4)n3)CC2)c(=O)[nH]c1=O gave an MIC of greater than 250 µg/mL (Mycobacterium tuberculosis; H37Rv Rv3065 (mmr) knockout).
For [Ca+2], the inhibition was 51.2% (Halyomorpha halys; inward current, inhibitor, electrophysiology; concentration not given).
